Assay results pooled from the literature.
Every numbered part comes from another study and shows a few of its results, in no order.

Block 1
Target: Centromere-binding protein 1, full length, His-tagged (CBF1, Saccharomyces cerevisiae, UniProt P17106, residues 1-351)
Chain of UniProt P17106 (whole entry, looked up): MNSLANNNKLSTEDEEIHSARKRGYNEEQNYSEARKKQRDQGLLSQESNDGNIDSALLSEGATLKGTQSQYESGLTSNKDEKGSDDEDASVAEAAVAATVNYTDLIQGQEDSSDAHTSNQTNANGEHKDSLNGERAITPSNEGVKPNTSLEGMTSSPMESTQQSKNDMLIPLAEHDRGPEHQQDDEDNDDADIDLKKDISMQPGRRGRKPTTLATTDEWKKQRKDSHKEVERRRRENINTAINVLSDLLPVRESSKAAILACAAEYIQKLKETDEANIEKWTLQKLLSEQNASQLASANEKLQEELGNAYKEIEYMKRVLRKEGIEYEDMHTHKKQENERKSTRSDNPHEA
Technique: competition protein-binding microarray
Molecule type: double-stranded DNA, one strand shown
Sample: in vitro
Tested at: 2 µM
Notes: whole 60-bp probe, lowest competitor level
With: Pho4 competitor, 0.05 µM
Direction: higher = stronger binding
Constant ends, left off below: … GTCTTGATTCGCTTGACGCTGCTG
Sequence | fluorescence intensity [a.u.]
GCACTACCATGTTTGCACGTGTTGGTGTCCTCATCA | 1460
CTTCTGTAAATTTGGATGGTGGGTGGACGCGCCCCG | 101
CGGGGTTAAGTTTGTCACAGTACTTGCTTGCAGCAG | 81.1
CTAACGAAGGTTTTTCACGTGGGCTACAAGCCAAGT | 838
CTTTCCCGATCTTGTCACATAACTTTAGCACATTTG | 76
GTCTTGTCTCATTGTCACTAAACTTTCCCCACTTCA | 82.4
CGCCGACTCTGCGCATTCGTGGCCGCTGCTCACTCC | 49.1
CATACCCAACCTTGTAGTGTGGGTGAAGATATTTGT | 73.3
GCAGACTTGATCGTCTTCGTGATGGTAGCTTTCTGT | 67.6
CTTCTGTAAATTTTTCACGTGAACTGACGCGCCCCG | 825
GCAAAGGAGGGAAAGCACGGGCAGATAGCACCGTAC | 64.4

Block 2
Target: RNA binding protein fox-1 homolog 2, RRM domain, GST-SBP tag (RBFOX2, Homo sapiens, UniProt O43251-10, residues 100-194)
Technique: RNA Bind-n-Seq
Molecule type: RNA
Sample: in vitro
Tested at: 365 nM
Notes: natural RNA segment, single round, ends assumed
Relative to: no-protein control
Direction: higher = stronger binding
Constant ends, left off below: GGGAGUUCUACAGUCCGACGAUC … UGGAAUUCUCGGGUGCCAA
Residues (chain): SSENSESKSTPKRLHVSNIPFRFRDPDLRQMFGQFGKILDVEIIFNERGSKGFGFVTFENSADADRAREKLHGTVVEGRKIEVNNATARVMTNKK
Sequence | RBNS enrichment (R)
UUUGUGCAAACUCUGUAAAUAUGUGUUUAAACAAAUGUAAUAUUUUGUACAAGAUACACUGGAGAACAAAGGGAACUCAAGAUUCUUCCAGCCACAUGUCACCUGUAGGU | 0.279
GCCGCCCUGUGGACUCCUGGGGCUGGUGCCAGUGCCCCAGGCCUGUGGGUGAGGGGCUCAAGGCCCCCCUGGAGGACCUUGGUCUCGAAGCCAUACGUGGUUGUCUGCCU | 0.235
CUGCACUGUGCAGAAGAGCAGAUCCUAGUGCUGCUCUGGCAUUAAUCCCAGGAACCACUAGCAGUAGUGGGGCGCCACCAAUGUAACAUGAGCACAGGUGCCUCAUGGCA | 0.256
CCCUGAAAUAUUUUCUACUUUAAAUUGUGGAUGAAGACCCUAUCUCCCACAAAUAAGUUCCCAUUUCCUUGUCUAAAGAUCUUUUUUUAAGUGUUCUGUGGCUGAUUUAC | 0.443
GAGUCUCACCCUGUUGGCCAGGCUGGAGUGCAGUAAGUGGCACAAUCUCGGCUCACUGCAACCUCCGCCUCCUUGGUUCCAGCAAUUCUUCUGCCUCAGCCUCCCGAGUA | 0.65
CUCUGUGUUAAUACUGCUUCACAAUUCUGAAUGGCUGUGUUCUCUUAAAUAAAUGCAUUCAAAGAAACGUGUGGUGGUAGCAUUACAAAUGUAGGUGGCUUUCUUCCUUC | 0.445
AGCCAGGCUGGUCUUGAACUCCUGACCUUGGGUGAUCCACCUGCCUCAGCCUCCCAAAGUGCUGGGAUUACAGGCGUGAGCUAUCCCGCCCGGUCCCCUUUUCUUUAUUA | 0.2
CGUCCCAAGAUGUUGAUUUUUACUGUGUUUUAUAAAAUAGAGUGUAGUUUACAGAAAAAGACUUUAAAAGUGAUCUACAUGAGGAACUGUAGAUGAUGUAUUUUUUUCAU | 0.652

Block 3
Target: RING finger protein unkempt homolog, zinc fingers 1-6, GST-SBP tag (UNK, Homo sapiens, UniProt Q9C0B0, residues 30-357)
Technique: RNA Bind-n-Seq
Molecule type: RNA
Sample: in vitro
Tested at: not given
Notes: RNA with constant flanks, human and mouse sites, ends assumed
Relative to: input RNA pool
Direction: higher = stronger binding
Constant ends, left off below: GGGAGUUCUACAGUCCGACGAUC … CAACAGAGGAUUGAGCAUCA
Residues (chain): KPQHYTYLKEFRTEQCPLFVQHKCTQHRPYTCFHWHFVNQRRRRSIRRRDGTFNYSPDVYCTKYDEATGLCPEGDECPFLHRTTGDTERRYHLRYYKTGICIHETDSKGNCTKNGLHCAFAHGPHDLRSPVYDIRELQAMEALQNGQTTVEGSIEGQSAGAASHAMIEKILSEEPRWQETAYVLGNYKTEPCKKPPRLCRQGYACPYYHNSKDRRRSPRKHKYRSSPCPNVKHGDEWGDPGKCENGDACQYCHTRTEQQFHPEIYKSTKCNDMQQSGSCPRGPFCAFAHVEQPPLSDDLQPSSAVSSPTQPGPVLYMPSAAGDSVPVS
Sequence | bound/input enrichment [ratio]
UGGAUACAAUCGGACAAUUAUUUUCGCUCUGCUCUGUUUUGCAUGGAGUAUUAUUAUUAUUUUUUAAAUUGCAUUUUUACCUUUCAUGUGCCUGAAGGCUAUCCAAUACAUUCUGAAAGG | 18.4
UUAAAUUCUUCACCCCCAUCCCCUUUUUUUGUGCUAAUUAGCAUCUCAGGGCAAUGCCUCAAAAAUGUUUGAUGUGUUCUGUUCUUUGGAGGGAAAAAGUUCUUAUGUGAUGAUAAUAUA | 0.873
GCCUCAGCUUCCACCCCCAGCACUACGUAUGGAAAAUUAGGGAGAUUAGAGAAACCACCUAAUUGCUGGGUCAGCCAGUGGAGGACAGCUGAGCAUCCAAGAGCCAGGCCCUGACCACCG | 0.293
CUAGGGAUUGGGCCAGGACCAGCAGACCUAAUUGACAAAGUCACUGGUCACCUAAAACUUUACUAGGUGGACUUUGAUAUGACAACAACCCCUCCAUCACAAGUGUUUGAAGCCUGUCAG | 0.175
UCCUUGGAGUUGAUGAUGUUAUGGAAGAGCUUAACUUUUAAAACAUUUAAACAGAGCAUAACCAGGUUUUACAGAGGAGAUACAAAGCAAUUUCUCCAUACCUUCAAAAGCCAUGUCUUC | 0.128
AUAAUGGACAAGCUUUCAACUGACAAAACUGUGAAAGUCCUAAAUAUAUUGGAGAAGAAUAUUCAGGAUGGAUCAAAGCUUUCCACUUUGUUAAAUCAUAAUAAUGAUACUGAAGAAGAA | 0.222
AGUCUGCCUGGUGAGGCUGGCAGGUGGGAGUCUAAUGCAGUCAGGAGCAUUUGCAUGCAGUGGGUGGAGAGUCGGCCACCAAAGGACCGAGUUGCGCUCGGAAUUUGAGCUGAAUUCCAC | 0.177
GAGCAGAGCCUGCACGAUGUGCUCUUCGACCUGAGCAAGACAGUGCUGCGCUGCAGCGGGAGCAUGACCAGGGACUCCUUCUCGGGGCUCUCCACAGAUAUGCACGACUAUGGUUUAAUC | 0.0959

Block 4
Target: Ras GTPase-activating protein-binding protein 1, full length (G3BP1, Homo sapiens, UniProt Q13283)
Chain of UniProt Q13283 (whole entry, looked up): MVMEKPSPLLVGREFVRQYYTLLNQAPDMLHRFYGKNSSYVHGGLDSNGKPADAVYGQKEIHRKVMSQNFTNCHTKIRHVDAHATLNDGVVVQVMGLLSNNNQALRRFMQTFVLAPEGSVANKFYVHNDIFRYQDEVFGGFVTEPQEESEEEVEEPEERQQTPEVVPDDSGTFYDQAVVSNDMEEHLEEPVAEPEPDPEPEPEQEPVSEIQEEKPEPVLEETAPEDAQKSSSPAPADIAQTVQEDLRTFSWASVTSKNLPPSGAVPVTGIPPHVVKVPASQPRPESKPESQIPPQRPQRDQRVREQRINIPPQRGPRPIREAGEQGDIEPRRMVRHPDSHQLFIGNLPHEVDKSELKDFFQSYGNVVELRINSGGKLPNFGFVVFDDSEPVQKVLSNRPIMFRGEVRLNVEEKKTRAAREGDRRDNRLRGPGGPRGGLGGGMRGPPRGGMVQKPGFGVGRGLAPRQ
Technique: RNA Bind-n-Seq
Molecule type: RNA
Sample: in vitro
Tested at: 200 nM
Notes: whole 134-nt RNA, ends assumed
With: 150 mM KCl
Relative to: input library
Direction: higher = stronger binding
Constant ends, left off below: GGGAGUUCUACAGUCCGACGAUC … UGGAAUUCUCGGGUGUCAAGG
Sequence | log2 enrichment
UUGUAUUAAGACAACGCUCCUCGACUUAGAUGCCUUGGCAAGACAUUUGGCUGACUGUAUUCGAAGGUAAAAUUUGAUGUGAAAUUGACA | -0.0644
AAGUCCUGUGCUACACAUCGUAUGUACCGAAUCGGUUUUGGGGUUUUGGGGUUUUGGAAAGUAUUAUGUUACGCCGUUCGGAUCUGCACU | -0.701
UGGCCCUGGUGGCAUGCGGGGAGGAAGAGGUGGCCUCAUGGAUCGUGGUGGUCCCGGUGGAAUGUUCAGAGGUGGCCGUGGUGGAUACAG | 0.245
CACAGACAACACGCACCCACACAGACACAGAGGAAAGGGGUUGGGAUGGGGACAGGGUGCACAGCAGGGCGGGGUAGGACCCCAGCCCCU | 1.79
AGUCCUGUGCUACACAUCGUAUGUACCGAAUCAAAUUUAAAUUUUUUUAAACCCAAAAAAGUAUUAUGUUACGCCGUUCGGAUCUGCACU | -0.458
UUCUCCUGCCCCGAAGCUCGCUGUGCGUGUGCGUGUGUGUGUCCCUCCGCCAACGCCGCCACCUCAGCCCGGCAAAUGAACUCCGUCCGA | 1.04
UGUGAAAGAAAACCGAAGUUUUAAAUGACUUCUCAUGGUUAUUUUUUUUCCUUUCUCUUGCAGGACAUUGGGGACACAUUGAGCAGGUAU | 0.148
GUCCUGUGCUACACAUCGUAUGUACCGAAUCGGGGUGGGGUUUUUUUGGGGUUUGGGGAAAGUAUUAUGUUACGCCGUUCGGAUCUGCAC | 0.317
UGGGAGGAGGAUUUUGUUUAUUUUUUUAGCUCAUUUCCAGGGGUGGGAAUUUUUUUUUAAUAUGUGUCAUGAAUAAAGUUGUUUUUGAAA | -0.497

Repeated from above (block 4):
Sequence | log2 enrichment
AGUCCUGUGCUACACAUCGUAUGUACCGAAUCAAAUUUAAAUUUUUUUAAACCCAAAAAAGUAUUAUGUUACGCCGUUCGGAUCUGCACU | -0.458
UUCUCCUGCCCCGAAGCUCGCUGUGCGUGUGCGUGUGUGUGUCCCUCCGCCAACGCCGCCACCUCAGCCCGGCAAAUGAACUCCGUCCGA | 1.04
UGUGAAAGAAAACCGAAGUUUUAAAUGACUUCUCAUGGUUAUUUUUUUUCCUUUCUCUUGCAGGACAUUGGGGACACAUUGAGCAGGUAU | 0.148
GUCCUGUGCUACACAUCGUAUGUACCGAAUCGGGGUGGGGUUUUUUUGGGGUUUGGGGAAAGUAUUAUGUUACGCCGUUCGGAUCUGCAC | 0.317
UGGGAGGAGGAUUUUGUUUAUUUUUUUAGCUCAUUUCCAGGGGUGGGAAUUUUUUUUUAAUAUGUGUCAUGAAUAAAGUUGUUUUUGAAA | -0.497
